Published values gathered from unrelated publications.
Every numbered part comes from another study and shows a few of its results, in no order.

Block 1 — method: competition protein-binding microarray; form: double-stranded DNA, one strand shown; matrix: in vitro; concentration: 2 µM; together with: Pho4 competitor, 0.05 µM; direction: higher = stronger binding; measurement: fluorescence intensity; shared flanks, not repeated: … GTCTTGATTCGCTTGACGCTGCTG
Target: Centromere-binding protein 1, full length, His-tagged (CBF1, Saccharomyces cerevisiae, UniProt P17106, residues 1-351)
UniProt P17106, sequence (whole entry, looked up): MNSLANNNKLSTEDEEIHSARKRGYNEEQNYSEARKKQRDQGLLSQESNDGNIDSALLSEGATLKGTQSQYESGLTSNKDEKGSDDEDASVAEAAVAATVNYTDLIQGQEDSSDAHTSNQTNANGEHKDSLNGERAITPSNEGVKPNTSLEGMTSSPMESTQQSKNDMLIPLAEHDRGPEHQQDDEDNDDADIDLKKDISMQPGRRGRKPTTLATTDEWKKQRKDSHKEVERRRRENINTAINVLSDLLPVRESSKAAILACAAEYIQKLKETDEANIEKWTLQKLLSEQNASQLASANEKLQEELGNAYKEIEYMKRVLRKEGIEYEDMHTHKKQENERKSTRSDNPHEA
Notes: whole 60-bp probe, lowest competitor level
TTGGTGGGGACTCTGCATGTGAAGAAGCTCAGTTCT: 86.7 a.u.
GCTGTGATAAAGAACTTCGTGCTTTTTTGGGTTACA: 75.2 a.u.
AAGAGCTTCTTGCGCTTTTTATCCCCATGGACTAGG: 72.3 a.u.
TGACCTCTAGATCGGCACGTCGACCATCAGTGGGAA: 70.8 a.u.
CTAACGAAGGTTTGAATGGTGGGTGACAAGCCAAGT: 73.5 a.u.
CGGGGTTAAGTTTCCCACGTGTTTTGCTTGCAGCAG: 524 a.u.
GTTCGACAGTATTGGCGCATGACAAAAGACGAGCCG: 78 a.u.
CTTCTGTAAATTTGCGAAGTGGGTGGACGCGCCCCG: 68.3 a.u.

Block 2 — method: RNA Bind-n-Seq; form: RNA; matrix: in vitro; concentration: 365 nM; relative to: no-protein control; direction: higher = stronger binding; measurement: RBNS enrichment (R)
Target: RNA binding protein fox-1 homolog 2, RRM domain, GST-SBP tag (RBFOX2, Homo sapiens, UniProt O43251-10, residues 100-194)
Notes: natural RNA segment, single round, ends assumed
Shared flanks, not repeated: GGGAGUUCUACAGUCCGACGAUC … UGGAAUUCUCGGGUGCCAA
GUUCAUUGGAAAUCUUCUUCCCUACAGCAGUAAGCAAAAAUUAGCAAAGAGAUAGUCUAAAUGGCCUCUCAGCUUGGUAUGUGAAAAUGAGAUCACAUACUUUUUAAAUC: 0.513
GAGCCGCCCAGCGCUGGCCCUGCUGGGGACAGACAUGCCAUACAGGUACUUUGGGACCCCUGGGAGGGUCCUACGUCCAGCCUCCAUCUCGGUCCUCUGGCCCCUUCUCC: 0.433
AAUGUGAUAAAUCUUUUUGUAGUUCCUUGGAGGAUAGCUGAUAUCCCACUCCUUCGUUUUUCCUCUCAAAUCUCCUUGGUGACCUCAUUGACUGGGAGCAUGGCCAGGCA: 8.21
UAGCAGAAUAUAGUUUGGAGUUUGGCUUCAUCUUCCUGGGGUUCCCCUCACUCCCUUUUUUGUCAACCCCAUCUGUAGCCUCUUCCUCUACUCAGGCAGUCGACCCGCCA: 0.881
UGUAUGUUGUGUAAAACAAAAAGCAUUGAUGAAAAAGCAAAAGGUGAUGUAUGUAUAUGAGAAAAUUAAUUGUACGAUAUCAUUCCAGUACGUUUUGUUGUACAUUUUAG: 0.913
UUUAUGAGUAGACAGUGUUAAUUUGAUUUUCUACAGGAAUUAUGUAACUUAUUCUUUAGGUUUAAAAAGAAUGCUCAAAGGCUAUACAGAGAAGCCCUGUAUCAAAAACC: 0.725
GGCUCCUUAUUGCUGCUUAGGCCUAGAAAGUUUAAGUAUGUGGAAGAGGAGAGUGAGUUGUAAGUUAGAUAAGGUGAAGGGAAUGGAGGGAAACAGGCAGCCUAGUGGGG: 1.27
UUUAAAAGAAGUUUUAAGAUAGAUAUUAAUAUGAAGUGUGUAAUAUUUCUUUUGAGGGUCAAAUAUUUGGCACAUUAUAUAAAAAUAUAAAUUAAAAAUUAUAUGCAUGU: 13.9
CUGGGCUUUUCUGUAAUAAGCUUCCUUUUAUAAUACUGGUCAGCUUAGCUCUCUCAGAUCCUAUCCUGUGGAAUUUAGUUAUUAUGUGUAUUUAUGUAGUAUUUCAAACA: 0.746
GUUUAACCCUCCCUAGUUGAAUGUUAUUUUCUUCUUGUUCCAUUAAGUCAGAAUACAAAUCAGCACAGAUAUUCGAAUGUUUCCAAUAUUUUAAAAUGUAAUGUUACUUA: 1.26
AGCUGGCUGGGGGGAAGGGCUUGUUCCCUACAGUGUCUGUUCUGUGAAGUUUGUUACGUGUAAGGGAAGCUGAAGUUCUUGUAUCUUUAAAGAGGAAAUCUUAUUUAACC: 0.699
CCUGUACAGGGGGAGGCGGCAGCUCUGGGACCCUGUGCCUGUCCACCCAAAGGCUCCAGCCAGCUGCACUCCUGGCAGUUUCCUGCACUUGGGCCUGAUGCUUCUCUAAC: 1.03

Block 3 — method: RNAcompete; form: RNA; matrix: in vitro; concentration: 20 nM; notes: 7-mer, probes averaged, single round; relative to: mean of 7-mers; direction: higher = stronger binding; measurement: 7-mer Z-score
Target: PABPC1L2, full length, GST fusion (mouse, UniProt A0ABA7IW68)
Residues (chain): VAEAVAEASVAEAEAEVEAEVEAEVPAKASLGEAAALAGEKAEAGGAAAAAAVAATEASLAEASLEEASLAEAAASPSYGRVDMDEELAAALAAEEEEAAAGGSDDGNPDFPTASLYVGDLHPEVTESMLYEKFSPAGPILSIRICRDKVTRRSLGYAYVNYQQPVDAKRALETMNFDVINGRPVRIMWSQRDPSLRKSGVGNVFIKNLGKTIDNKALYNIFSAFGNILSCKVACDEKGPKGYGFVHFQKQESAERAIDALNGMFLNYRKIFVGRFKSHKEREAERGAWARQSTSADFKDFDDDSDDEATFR
ACCGAUG: -0.0718
CUACAUU: -0.195
GCAACAC: 0.0696
UCCCAAA: 0.334
CGUCUGU: -0.407
UAUGGUU: -0.209
CUUAAAG: 0.242
ACGAAUC: -0.0663
AAUCAUG: 0.0841
CGACUUU: -0.133
CCCUUGG: -0.246
AAUAUAA: 1

Further values, each from its own experiment
PhoQ, residues 284 288 289 292 302 303 SCCLKL
fold induction (PhoP, residues 12 14 15 18 19 NYFTV (Escherichia coli, UniProt P23836); Sort-seq, measured: YFP reporter; E. coli; PhoQ-PhoP variant library, together with: 10 µM Mg2+; relative to: high Mg2+ state, higher = stronger signaling): 8.79
